# Results of several laboratories.
# Numbered parts are unrelated; each lists some results of a single study.

# Study 1
# Target: Histone acetyltransferase KAT6A, both winged helices, GST fusion (KAT6A, Homo sapiens, UniProt Q92794, residues 1-181)
# Method: protein binding microarray
# Molecule type: double-stranded DNA, one strand shown
# Sample: in vitro
# Tested at: not given
# Notes: 8-mer, flanks averaged, mean of 2 arrays, mostly near background
# Baseline: not given
# Reading: higher = stronger binding
# Target sequence (chain): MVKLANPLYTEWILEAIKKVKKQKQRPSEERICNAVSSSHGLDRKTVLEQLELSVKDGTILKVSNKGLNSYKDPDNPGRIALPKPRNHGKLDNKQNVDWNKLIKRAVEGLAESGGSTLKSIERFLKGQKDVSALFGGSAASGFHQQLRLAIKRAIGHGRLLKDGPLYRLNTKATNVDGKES
Oligonucleotide,E-score
CAGCGGAA,0.198
AAGGGTCG,0.124
GACACGGC,0.208
AGGTCTAA,-0.126
ATTCATTG,-0.0757
GTATTTGA,-0.0857
CTCCAACA,-0.24
CTTGCACA,-0.184
GCGCCAGC,0.152
CACGCGTC,0.293
CGGTGGGA,0.0485
AAACACTA,0.0302
GCGTCCAA,0.0517
GAACTGGC,-0.0592
CGAAGGGA,-0.171
CGAAAACC,0.0998
GAAAGACA,-0.0586
CCACGAGC,-0.0566
GGCGCAAC,0.15
CCTCCCGC,0.221
GCTGTGGA,-0.0391
CCCGCTTA,0.147
GTGAAAAC,0.0769
ATTCGTCC,0.0677
ACGCCACG,0.168

# Study 2
# Target: Phosphate system positive regulatory protein PHO4, full length, GST-tagged (PHO4, Saccharomyces cerevisiae, UniProt P07270, residues 1-312)
# Method: competition protein-binding microarray
# Molecule type: double-stranded DNA, one strand shown
# Sample: in vitro
# Tested at: 2 µM
# Notes: whole 60-bp probe, lowest competitor level
# Added: Cbf1 competitor, 0.05 µM
# Reading: higher = stronger binding
# Shared flanks, not repeated: … GTCTTGATTCGCTTGACGCTGCTG
# Residues (chain): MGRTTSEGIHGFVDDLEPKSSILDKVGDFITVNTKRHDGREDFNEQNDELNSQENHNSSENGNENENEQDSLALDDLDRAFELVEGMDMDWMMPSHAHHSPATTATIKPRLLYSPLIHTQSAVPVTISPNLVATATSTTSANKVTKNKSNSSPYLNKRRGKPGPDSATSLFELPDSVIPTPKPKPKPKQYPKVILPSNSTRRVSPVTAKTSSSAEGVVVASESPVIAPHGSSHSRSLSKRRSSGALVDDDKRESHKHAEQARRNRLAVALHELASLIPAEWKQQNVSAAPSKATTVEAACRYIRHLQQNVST
Oligonucleotide,fluorescence intensity [a.u.]
GTAAGGGTGAGGGGCCACGTGGCAATCAGAGCAGCT,17800
TGCTGTTTCCTTGTCCACGTGAGTCAGTTCTGCAGA,12200
CATACCCAACCTTTTCACGTGCGCTAAGATATTTGT,15000
CTTCTGTAAATTTGTCACTGGACTTGACGCGCCCCG,3000
CTTCCTTCCAGAGCCCGCGTGCTAATGCAGAGTGGT,11500
CTAACGAAGGTTTTCCACGTGTTTTACAAGCCAAGT,15700
CTAACGAAGGTTTGCTATGTGGGTGACAAGCCAAGT,4710
CGTCCTAGTGATTGTCACACGACTTCCATGAGGAAG,6410
AAAAAAATAAATGAACACATGGAAATAAGTCAAGGA,8450
CTTTCCCGATCTTGGCTGGTGGGTGTAGCACATTTG,4350
AAAGCGGTAATTTGGACTGTGGGTGCAGATATCTAT,3850
CTAACGAAGGTTTGGACTGTGGGTGACAAGCCAAGT,3360
CATTTGACTCCATAGAACGTGTGGAGCTGGTGCCAT,10700
TCTCCACCTCTACGACCCGTGCGGAAGGTGGAAACC,8300
GCCCCAGGTTAGGACCACGTGGGTAAGAAGATTTCC,17000
GCTAGAGAGTTTCACCACGTTAATGGACTGAACCTT,6270
CTAACGAAGGTTTGTGTGGTGGGTGACAAGCCAAGT,4540
TGCGCAACAACTTGAGTAGTGGGTGTATGTCTAGAA,4820
GAGAGGAAGACGCGTTTCGTGGGACTTGGACCACTA,4280

# Study 3
# Target: Interferon regulatory factor 3, full length, phosphomimetic (IRF3, Homo sapiens, UniProt Q14653, residues 1-427, S386D/S396D/S398D/S402D/T404D/S405D)
# Method: protein-binding microarray
# Molecule type: double-stranded DNA, one strand shown
# Sample: in vitro
# Tested at: 2540 nM top
# Notes: 60-bp whole probe
# Added: salmon DNA 0.4 mg/ml
# Baseline: random background probes
# Reading: higher = stronger binding
# Shared flanks, not repeated: GCCTAGCAC … GTCTTGATTCGCTTGACGCTGCTG
# Construct (chain): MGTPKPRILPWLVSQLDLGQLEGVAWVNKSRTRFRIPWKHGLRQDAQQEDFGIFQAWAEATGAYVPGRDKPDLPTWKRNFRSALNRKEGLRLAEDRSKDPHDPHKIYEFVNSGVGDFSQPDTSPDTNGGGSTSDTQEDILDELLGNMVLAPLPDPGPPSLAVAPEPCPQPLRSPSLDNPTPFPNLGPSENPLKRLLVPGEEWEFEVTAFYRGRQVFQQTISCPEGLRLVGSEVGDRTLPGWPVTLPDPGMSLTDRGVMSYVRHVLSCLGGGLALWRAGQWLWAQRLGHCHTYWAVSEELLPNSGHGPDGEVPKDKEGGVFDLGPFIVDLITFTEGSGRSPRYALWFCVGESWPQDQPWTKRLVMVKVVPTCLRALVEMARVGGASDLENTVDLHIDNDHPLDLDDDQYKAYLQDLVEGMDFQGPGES
Oligonucleotide,fitted relative affinity [z-score]
TTAGGACTGATTCTCCTTTAGTGCTAG,0.811
ATAGGACTGGGGTATCGGTTAGTGCTA,-0.0259
GACGCACTGGGTATCGGGACGTGCTAG,-0.147
TTAGGACAGGGTATCGGTTAGTGCTAG,0.442
TTAAGTCTCGGTTTCGGTTAGTGCTAG,5.81
GACGAACTGGGGTCTCGAGACGTGCTA,-0.58
GGCGGTATCCTTCTCCTGACGTGCTAG,7.08
TTAGGACTGGGGTACCGGTTAGTGCTA,-0.416
TTAAGTCTCGGTCTCGGTTAGTGCTAG,1.47
TCATGTATATCTTCAGCACTGTGCTAG,0.00684
TTAGATCTCAGTTTCGATCAGTGCTAG,2.72
GACGATTTCAGTATCCAGACGTGCTAG,3.04
GACGGTAACGGGTTTCGGGACGTGCTA,1.23
TCATGCTTTCTTTTTGCACTGTGCTAG,1.11
TTAGTTTTCCTTATCCTTTAGTGCTAG,5.81
TTAGGACCGCTTCTCCTTTAGTGCTAG,0.535
GACGATCTCAGTCTCGAGTCGTGCTAG,1.08
TTTTTTTTCTGATCCATTTTGTGCTAG,3.01
TTAGGCTCCCTTTTCCTTTAGTGCTAG,4.17

# Study 4
# Target: RNA binding protein fox-1 homolog 2, RRM domain, GST-SBP tag (RBFOX2, Homo sapiens, UniProt O43251-10, residues 100-194)
# Method: RNA Bind-n-Seq
# Molecule type: RNA
# Sample: in vitro
# Tested at: 365 nM
# Notes: natural RNA segment, single round, ends assumed
# Baseline: no-protein control
# Reading: higher = stronger binding
# Shared flanks, not repeated: GGGAGUUCUACAGUCCGACGAUC … UGGAAUUCUCGGGUGCCAA
# Residues (chain): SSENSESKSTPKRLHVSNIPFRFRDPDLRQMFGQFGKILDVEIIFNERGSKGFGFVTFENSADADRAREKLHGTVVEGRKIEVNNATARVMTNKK
Oligonucleotide,RBNS enrichment (R)
ACGGGUUCUCACCCCUGACUUCUGGAGGCUUCCCUUGAAGCUCUGUGCAAAAGGUGGGAGACAGAGCUGGACCUGCAGGGGUGGUCCCGCCACAACCCUGCGUGUGGACC,0.249
GGUCUCUUCUGCCAUUGUGCUGGUCCCAUCCCAAGAAUUGUAGGACAGAGACCACACUGGGUCGGCGGACACAAAGUCCAUCCAGGACCCAGGCCGCAGAGGGAGCAGGA,0.889
CUUUGAGAAAAAAGAAAUAGAAACUUACUUGAUGCAGAAUGGAUAUUUAUAUUUCUGCUUGCACCAUUUCCAUAGCAGCUGACAAAGGCAAAAUCAUGAAAUAGAAUCAU,0.516
UAUGCUAUGUUAGAAGUCCAGGCAGAGACAAUAAAACAUUCCUGUGAAAGGCACUUUUCAUUCCACUUUAACUUGAUUUUUUAAAUUCCCUUAUUGUCCCUUCCAAAAAA,1.51
UUAAAAACAUGAUGGGCUGUUUUAAGACCAGAGUGGAAAUUCAUGAGAGGAACUAUACUACCAAAAGAGCCCAAAUGACCAAAUCCAUGGAUAAUUGCUUCACAGCCUUG,0.432
UUCUUAAUUUAUAUUAUAUUUUAAACAACAUAGUAUAUAGCACAGGAAUUUGCAGAAGCCAUUUAAGUUUUUUGAGGUCAGCGCUGAGUUAGCAUUUAUUGUUUUGAUGA,0.732
AAUAUUGACCUAACUAACUUGAAUGUCUCAUAUGAUGAAUCAAUAAACUAUGUGCACAUAGCUUUGAUGUUGGUUUCUUGUGUCAUUUGUAGGGGUUUUGUUUUGAAGUU,0.434
UUACUGCAGUGCAACACUUGCACUUUAAUUUUCCUCCAACUGUCUAAAAUUAGAGCAAAUACAUUGGCAAUACAGCUGCUUUUGCUCUGAGCUACAAUCAUGGCUUUUCA,0.292

# Repeated from above (study 1):
Oligonucleotide,E-score
CAGCGGAA,0.198
GCGTCCAA,0.0517
GAACTGGC,-0.0592
CCACGAGC,-0.0566
CACGCGTC,0.293
CGAAAACC,0.0998
CGGTGGGA,0.0485
ACGCCACG,0.168
CTTGCACA,-0.184
